Experimental data collected from several papers.
Compare with care: the assays were run in different laboratories. ± gives the spread as reported.

| SMILES | assay | test system | conditions | how to read | measurement | value |
| --- | --- | --- | --- | --- | --- | --- |
| O=C(NCc1cc(F)cc(F)c1)[C@@]1(O)CCN(c2ccc3[nH]ccc3c2)C1=O |  | CAKI-1 xenograft, mouse | oral, 25 mg/kg twice daily |  | T/C | 37% |
| CCCCCCOC(=O)Cc1c(C)n(C(=O)c2ccc(Cl)cc2)c2ccc(OC)cc12 | hot plate test | BALB/c mice | 50 mg/kg, 0 min |  | latency of nociceptive response | 9.54 ± 0.32 s |
| COc1cc(CN2CCN(c3ccc(C)cc3)CC2)c2cc3[n+](cc2c1O)CCc1cc2c(cc1-3)OCO2 | ABTS scavenging, absorbance |  | 10 min |  | IC50 | 13 µg/mL |
| C[C@@H](O)[C@@H]1NC(=O)[C@H](CCCCN)NC(=O)[C@@H](Cc2ccc(NC(N)=O)cc2)NC(=O)[C@H](Cc2ccc(NC(=O)[C@@H]3CC(=O)NC(=O)N3)cc2)NC(=O)[C@H](NC(=O)[C@H](Cc2ccc(Cl)cc2)NC(=O)CN2CCN(CC(=O)O)CCN(CC(=O)O)CCN(CC(=O)O)CC2)CSSC[C@@H](C(=O)N[C@H](Cc2ccc(O)cc2)C(N)=O)NC1=O [gallium-68 labelled] | PET/CT | human neuroendocrine tumour patients, lung lesions | 60 min |  | SUVpeak | 11 |
| CC[C@@H](C)N([11CH3])C(=O)c1nc(-c2ccccc2)c2ccccc2n1 | PET from VT/fP | rhesus monkey, cerebellum | dose not given |  | TSPO specific binding | 78% |
| NS(=O)(=O)NCC(O)c1ccccc1F (centres unmarked) | MES seizures | mouse | intraperitoneal |  | ED50 | 75 mg/kg |
| CN(C)c1ccc(-c2oc3ccccc3c(=O)c2OCc2ccccc2)cc1 |  | diabetic rat | 7.5 mg/kg, day 21, p-nitrophenyl β-glucoside induced |  | blood glucose | 165 ± 4.42 mg/dL |
| O=C1/C(=C/c2ccccc2)Oc2cc(O)c(-c3ccc(O)c(O)c3)c(O)c21 | DPPH scavenging, absorbance |  |  |  | EC50 | 130 µM |
| CSCC[C@@H]1NC(=O)[C@H](C)NC(=O)[C@H]([C@@H](C)O)NC(=O)CNC(=O)[C@H](CC(C)C)NC(=O)[C@H](CCC(N)=O)NC(=O)[C@H](CCCNC(=N)N)NC(=O)[C@@H]2CSSC[C@@H]3NC(=O)[C@@H]4CCCN4C(=O)[C@H](C(C)C)NC(=O)[C@H](CCC(N)=O)NC(=O)[C@H](CCC(N)=O)NC(=O)CNC(=O)[C@H](CC(C)C)NC(=O)[C@@H]4CSSC[C@H](NC(=O)[C@H]([C@@H](C)O)NC(=O)[C@H](C)NC(=O)[C@H](CSSC[C@@H](C(=O)N[C@@H](CO)C(=O)N[C@@H](CCC(N)=O)C(=O)N[C@H](C(N)=O)[C@@H](C)O)NC(=O)[C@@H]5CCCN5C(=O)[C@H](CC(N)=O)NC1=O)NC(=O)[C@@H]1CCCN1C(=O)[C@H](CC(=O)O)NC(=O)[C@H](CSSC[C@H](NC(=O)[C@H](CCC(N)=O)NC(=O)[C@H](CCC(N)=O)NC(=O)[C@H](CO)NC(=O)[C@@H](N)CO)C(=O)N[C@@H](C(C)C)C(=O)N[C@@H](CCCNC(=N)N)C(=O)N[C@@H](CC(C)C)C(=O)N[C@@H](Cc1c[nH]cn1)C(=O)N[C@@H](CCC(=O)O)C(=O)N[C@@H](CO)C(=O)N4)NC3=O)C(=O)N[C@@H](Cc1ccc(O)cc1)C(=O)N[C@H]1CSSC[C@H](NC(=O)[C@H](Cc3ccccc3)NC(=O)[C@H](C)NC(=O)[C@H](CC(N)=O)NC(=O)[C@H](Cc3ccccc3)NC(=O)[C@H](Cc3ccccc3)NC(=O)[C@H](CCCNC(=N)N)NC1=O)C(=O)N[C@@H](Cc1ccc(O)cc1)C(=O)N2 |  | Long-Evans rat, male | intracerebroventricular, 1.0 nmol in 1.0 µL, 24 h, non-cumulative | reference: saline | food intake | 37.9 ± 4.4 % above saline |
| Cc1nc(C)c(C=[N+]([O-])C(C)(C)C)nc1C | Western blot, measured: Akt phospho-Ser473 | mouse, MPTP model | 90 mg/kg |  | protein level increase | 54.4% |
| O=C(NCCN1C(=O)C=CC1=O)[O][Pt-2]12([O]C(=O)NCCN3C(=O)C=CC3=O)([NH2+][C@@H]3CCCC[C@H]3[NH2+]1)[O]C(=O)C(=O)[O]2 | H&E histology | BALB/c mouse CT26 allograft, tumour | dose not given, day 12 |  | mitotic cell fraction reduction | ~50% |
| CCOc1ccc(C[C@@H]2NC(=O)[C@@H](N)CSSC[C@@H](C(=O)N3CCC[C@H]3C(=O)N[C@@H](CC(C)C)C(=O)NCC(N)=O)NC(=O)[C@H](CC(N)=O)NC(=O)[C@H](CCC(N)=O)NC(=O)[C@H]([C@@H](C)CC)NC2=O)cc1 | antagonist | Bufo marinus urinary bladder | together with: [5-ornithine]-oxytocin |  | pA2 | 6.6 |
| O=c1c(OCc2ccccc2)c(-c2ccc(Cl)cc2)oc2ccccc12 |  | diabetic rat | 5 mg/kg, day 14, p-nitrophenyl β-glucoside induced |  | blood glucose | 210 ± 4.77 mg/dL |
| CC(C)[C@@H]1NC(=O)[C@H](Cc2ccccc2)NC(=O)[C@]2(CC[C@H](c3ccccc3)CC2)NC(=O)[C@@H](N)CSSC[C@@H](C(=O)N2CCC[C@H]2C(=O)N[C@@H](CCCNC(=N)N)C(=O)NCC(N)=O)NC(=O)[C@H](CC(N)=O)NC1=O | anti-oxytocic activity, antagonist | isolated rat uterus strips | without Mg2+ |  | pA2 | 8.22 |
| O=c1c(OCc2ccccc2)c(-c2ccc([N+](=O)[O-])cc2)oc2ccccc12 |  | diabetic rat | 5 mg/kg, day 1, p-nitrophenyl β-glucoside induced |  | blood glucose | 401 ± 5.02 mg/dL |
| COC(=O)C(Cc1c[nH]cn1)NC(=O)C1(C)C(O)CCC2(C)C1CCC1(C)C2CC=C2C3C(C)C(C)CCC3(C)CCC21C (centres unmarked) |  | rat TNBS-induced colitis | oral, dose not given, day 6 | direction not given | clinical activity score | 3 ± 1 |
| C=C(c1cc(F)c(C(=O)O)c(F)c1)c1cc2c(cc1C)C(C)(C)CCC2(C)C | RNA sequencing, measured: Mpeg1 | rat, brain | dose not given, 24 h | reference: vehicle | log2 fold change | -0.54 |
| COc1cc(/C=C/C(=O)NCCCCCCNC2=C3C[C@@H](C)C[C@H](OC)[C@H](O)[C@@H](C)/C=C(\C)[C@H](OC(N)=O)[C@@H](OC)/C=C\C=C(/C)C(=O)NC(=CC2=O)C3=O)ccc1O |  | MDA-MB-231, mouse xenograft | intravenous, 10 mg/kg every three days, 15 d |  | T/C relative tumour volume | 29.7% |
| Cc1ccc(-c2oc3ccccc3c(=O)c2OCc2ccccc2)cc1 |  | diabetic rat | 7.5 mg/kg, day 14, p-nitrophenyl β-glucoside induced |  | blood glucose | 278 ± 4.98 mg/dL |

| SMILES | assay | test system | conditions | how to read | measurement | value |
| --- | --- | --- | --- | --- | --- | --- |
| Cc1[nH]nc2c1N=C(c1ccccc1Cl)c1cnc(N3CCOCC3)cc1N2 |  | MC-38 syngeneic tumour, mice, tumour | dose not given, monotherapy |  | tumour-associated macrophage infiltration | decreased |
| COc1ccc(-c2oc3ccccc3c(=O)c2OCc2ccccc2)cc1 |  | diabetic rat | 5 mg/kg, day 7, p-nitrophenyl β-glucoside induced |  | blood glucose | 306 ± 4.58 mg/dL |
| CCN(CC)CCn1nc(C23CC4CC(CC(C4)C2)C3)n(C)c1=S | paw oedema | rat | intraperitoneal, 40 mg/kg |  | inhibition in vivo | 29.5% |
| CC[C@H]1[C@@H](O)[C@@H]2[C@H](CC[C@]3(C)[C@@H]([C@H](C)CCOS(=O)(=O)[O-])CC[C@@H]23)[C@@]2(C)CC[C@@H](O)C[C@@H]12.[Na+] | histology | ob/ob NASH mouse model, liver | oral, 10 mg/kg once daily, 8 weeks, scale 0 to 3 | direction not given | steatosis score | 1.8 ± 0.2 |
| COc1ccc2c(c1)c(CC(=O)OCC(=O)OC(C)(C)C)c(C)n2C(=O)c1ccc(Cl)cc1 | hot plate test | BALB/c mice | 75 mg/kg, 120 min |  | latency of nociceptive response | 14 ± 1.04 s |
| Cc1ccc(=O)n(-c2ccc(O)cc2)c1 |  | BALB/c mouse, CCl4 liver injury, liver | oral, 1 mmol/kg daily, 4 weeks |  | GPX activity | increased |
| CC/C=C\C/C=C\C/C=C\C/C=C\C/C=C\CCCCOC(CC)C(=O)O (centres unmarked) | oral glucose tolerance test | ob/ob mice | dose not given, 5 weeks, 4 h fasted, 0-120 min, together with: glucose 2 g/kg po |  | reduction of glucose AUC | 60% |
| S=c1n(CN2CCN(c3ccccc3)CC2)nc(C23CC4CC(CC(C4)C2)C3)n1-c1ccccc1 | paw oedema | rat | intraperitoneal, 40 mg/kg |  | inhibition in vivo | 14.1% |
| CC(C)C[C@@H]1NC(=O)[C@@H]2CSSC[C@@H]3NC(=O)[C@H]([C@@H](C)O)NC(=O)[C@H](C)NC(=O)[C@H](C)NC(=O)[C@@H]4CCCN4C(=O)[C@H](CC(=O)O)NC(=O)[C@H](CSSC[C@H](NC(=O)[C@H](CCCNC(=N)N)NC(=O)[C@H](CCCNC(=N)N)NC(=O)[C@H](CO)NC(=O)[C@@H](N)CO)C(=O)N[C@@H](C(C)C)C(=O)N[C@@H](CCCNC(=N)N)C(=O)N[C@@H](CC(C)C)C(=O)N[C@@H](Cc4c[nH]cn4)C(=O)N[C@@H](CCC(=O)O)C(=O)N[C@@H](CO)C(=O)N2)NC(=O)[C@H](CSSC[C@@H](C(=O)N[C@@H](CCCNC(=N)N)C(N)=O)NC(=O)[C@H](Cc2ccc(O)cc2)NC(=O)[C@@H]2CSSC[C@H](NC(=O)[C@H](Cc4ccc(O)cc4)NC3=O)C(=O)N[C@@H](CCCNC(=N)N)C(=O)N[C@@H](Cc3ccccc3)C(=O)N[C@@H](Cc3ccccc3)C(=O)N[C@@H](CC(N)=O)C(=O)N[C@@H](C)C(=O)N[C@@H](Cc3ccccc3)C(=O)N2)NC(=O)[C@@H]2CCCN2C(=O)[C@H](C(C)C)NC(=O)[C@H](CCC(N)=O)NC(=O)[C@H](CCC(N)=O)NC(=O)CNC1=O |  | Long-Evans rat, male | intracerebroventricular, 1.0 nmol, day 3, non-cumulative | reference: saline | food intake | 13.5 ± 1.5 % above saline |
| CC(=O)[O-].O.O.O.O.[Ni+2].[O-]c1ccc(Br)cc1C=NCCN1CCOCC1 | nitric oxide scavenging |  | 240 µM |  | inhibition | 56.5% |
| O=c1cc(-c2ccc(O)cc2)oc2cc3oc4cc(O)c(O)cc4c3c(O)c12 | DPPH scavenging, absorbance |  |  |  | EC50 | > 20000 µM |
| COc1ccc2c(c1OC)C(C(Cl)(Cl)Cl)N1CCc3cc4c(cc3C1=C2)OCO4 (centres unmarked) |  | rat, STZ-induced diabetic, liver | oral, 12 mg/kg, day 28 |  | catalase activity | 33.8 ± 1.39 U/mg protein |
| COc1ccc(C2CC(c3ccc(C)cc3)=Nc3ccccc3S2)cc1OC (centres unmarked) |  | Wistar rat, STZ-induced diabetes | oral, 10 mg/kg once daily, day 7 |  | blood glucose | 286 mg/dL |
| O=C1c2c(cc(O)c(-c3ccc(O)c(O)c3)c2O)OC1Cc1ccc(O)c(O)c1 (centres unmarked) | DPPH scavenging, absorbance |  |  |  | EC50 | 40 µM |
| O=c1c(OCc2ccccc2)c(-c2cccc([N+](=O)[O-])c2)oc2ccccc12 |  | diabetic rat | 7.5 mg/kg, day 14, p-nitrophenyl β-glucoside induced |  | blood glucose | 241 ± 4.9 mg/dL |
| Fc1ccc2[nH]c(-c3ccco3)nc2c1 | ABTS scavenging, absorbance |  |  |  | IC50 | 1.4 µM |
| CCc1nnc(NS(=O)(=O)c2ccc(NC(=S)NC(=O)/C=C/c3ccc(F)cc3)cc2)s1 | immunostaining | athymic nude mouse, BE(2)-C xenograft, tumour | ip, 20 mg/kg daily, 3 weeks |  | cleaved PARP level | increased |
| Cc1cc(Nc2cc3ncccc3c(N[C@@H]3C[C@H]4CC[C@@H](C3)N4CCC#N)n2)n[nH]1 |  | moderate-severe ulcerative colitis patients | 80 mg, day 28 | reference: patients | clinical response | 20% |
| C[C@H](NC(=O)COC(=O)[C@H](C)NC(=O)CO)C(=O)O |  | water | pH 6, 65 °C |  | depolymerization rate constant | 4.21 h⁻¹ |

For quick reference, copied from above:
| SMILES | assay | test system | conditions | how to read | measurement | value |
| --- | --- | --- | --- | --- | --- | --- |
| O=c1cc(-c2ccc(O)cc2)oc2cc3oc4cc(O)c(O)cc4c3c(O)c12 | DPPH scavenging, absorbance |  |  |  | EC50 | > 20000 µM |
| COc1ccc2c(c1OC)C(C(Cl)(Cl)Cl)N1CCc3cc4c(cc3C1=C2)OCO4 (centres unmarked) |  | rat, STZ-induced diabetic, liver | oral, 12 mg/kg, day 28 |  | catalase activity | 33.8 ± 1.39 U/mg protein |
| COc1ccc(C2CC(c3ccc(C)cc3)=Nc3ccccc3S2)cc1OC (centres unmarked) |  | Wistar rat, STZ-induced diabetes | oral, 10 mg/kg once daily, day 7 |  | blood glucose | 286 mg/dL |
| O=C1c2c(cc(O)c(-c3ccc(O)c(O)c3)c2O)OC1Cc1ccc(O)c(O)c1 (centres unmarked) | DPPH scavenging, absorbance |  |  |  | EC50 | 40 µM |
| O=c1c(OCc2ccccc2)c(-c2cccc([N+](=O)[O-])c2)oc2ccccc12 |  | diabetic rat | 7.5 mg/kg, day 14, p-nitrophenyl β-glucoside induced |  | blood glucose | 241 ± 4.9 mg/dL |
